Experimental data collected from several papers.
Parts stem from different laboratories: compare values within a part only.

Block 1
Target: RNA binding protein fox-1 homolog 2, RRM domain, GST-SBP tag (RBFOX2, Homo sapiens, UniProt O43251-10, residues 100-194)
Method: RNA Bind-n-Seq
Molecule type: RNA
Sample: in vitro
Concentration: 365 nM
Setting: natural RNA segment, single round, ends assumed
Baseline: no-protein control
Direction: higher = stronger binding
Construct (chain): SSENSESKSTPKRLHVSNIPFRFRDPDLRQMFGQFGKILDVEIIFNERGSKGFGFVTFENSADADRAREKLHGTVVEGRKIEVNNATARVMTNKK
Oligonucleotide	RBNS enrichment (R)
GGGAGUUCUACAGUCCGACGAUCAUGUUCCUUGUGGGAGACUUUGGCGAGGGUCUGUGGGUAAAAGCACCAGGGGGUUAAUCUUGGCUCAGUUUCCUAAAAAGCAUUGAUUAAUUUAACUGGCUUUUAAAUAUUGGAAUUCUCGGGUGCCAA	0.891
GGGAGUUCUACAGUCCGACGAUCGGCCUACCCCCCAUAUGUCCUCAGAGAGGCUGAGUGUCCCCUCCAGGCAGUCAUGGGCCCUGAGGCCCCUCCUGCCUGGCCCUGCUCCCCAGUGGGGAGGUGACUGUGUUUGGAAUUCUCGGGUGCCAA	0.237
GGGAGUUCUACAGUCCGACGAUCUAUGGAACAUAAAGUUGUAUUGCAUGCAAUUUGAAGUAACUUAUUUGACUAUGAAUGUUAUCGGAUUACUGAAUUGUAUCAAUUUGUUUGUGUUCAAUAUCAGCUUUGAUUGGAAUUCUCGGGUGCCAA	7.92
GGGAGUUCUACAGUCCGACGAUCACUCUAAGCUGGAGCUCUUGGAAGAGCUCUUCGGUUUCUGAGCAUAAUGCUCCCAUCUCCUGAUUUCUCUGAACAGAAAACAAAAGAGAGAAUGAGGGAAAUUGCUAUUUUGGAAUUCUCGGGUGCCAA	0.596

Block 2
Target: Interferon regulatory factor 5, full length, phosphomimetic (IRF5, Homo sapiens, UniProt Q13568-2, residues 1-514, S451D/S453D/S456D/S462D)
Method: protein-binding microarray
Molecule type: double-stranded DNA, one strand shown
Sample: in vitro
Concentration: 940 nM top
Setting: 60-bp whole probe
Added: salmon DNA 0.4 mg/ml
Baseline: random background probes
Direction: higher = stronger binding
Oligonucleotide	fitted relative affinity [z-score]
GCCTAGCACGACCGTATCGGGACTGGGGACGTGCTAGTCTTGATTCGCTTGACGCTGCTG	0.966
GCCTAGCACTCAATATTCACTATAGTACTGTGCTAGGTCTTGATTCGCTTGACGCTGCTG	0.357
GCCTAGCACGACGATTTGAGTCTCGAGACGTGCTAGGTCTTGATTCGCTTGACGCTGCTG	1.07
GCCTAGCACTTAGGACTGCTTCTCCTTTAGTGCTAGGTCTTGATTCGCTTGACGCTGCTG	0.15

Single results of other studies
F2 mature alpha-thrombin: Prothrombin, mature alpha-thrombin (F2, Homo sapiens, UniProt P00734)
Substance	target	test	system	conditions	how to read	measurement	value
GGTTGGTGTGGTTGG (2'F-ANA at 2 4 5 6 7 11 13 14 15)	F2 mature alpha-thrombin	aptamer microarray, sandwich	DNA with 2'F-ANA, in vitro	200 nM, whole 15-mer aptamer, many near background, added: Cy3 exosite-II aptamer, 400 nM	higher = stronger binding	mean fluorescence intensity	67.7 a.u.
PhoQ, residues 284 288 289 292 302 303 SSYNSA	PhoP, residues 12 14 15 18 19 SGWQI (Escherichia coli, UniProt P23836)	Sort-seq, refers to: YFP reporter	E. coli	PhoQ-PhoP variant library, added: 10 µM Mg2+	baseline: high Mg2+ state, higher = stronger signaling	fold induction	1.85
GGTTGGTGTGGTTGG (2'F-ANA at 1 3 4 7 10 13 15)	F2 mature alpha-thrombin	aptamer microarray, sandwich	DNA with 2'F-ANA, in vitro	200 nM, whole 15-mer aptamer, many near background, added: Cy3 exosite-II aptamer, 400 nM	higher = stronger binding	mean fluorescence intensity	56.4 a.u.

Excerpt of the above (block 2):
Oligonucleotide	fitted relative affinity [z-score]
GCCTAGCACTTAGGACTGCTTCTCCTTTAGTGCTAGGTCTTGATTCGCTTGACGCTGCTG	0.15
